Measurements collected from several papers.
Compare with care: the assays were run in different laboratories.
Organism: Pseudomonas aeruginosa

CC(C)C[C@@H]1NC(=O)[C@@H](CC(C)C)NC(=O)[C@H](CCN)NC(=O)[C@@H](NC(=O)[C@H](CCN)NC(=O)[C@@H](N)[C@@H](C)O)CCNC(=O)[C@H]([C@@H](C)O)NC(=O)[C@H](CCN)NC(=O)[C@H](CCN)NC1=O  MIC (broth microdilution; ATCC 25922, cation-adjusted Mueller-Hinton broth): > 138 µM
N=C(N)NCCC[C@@H]1NC(=O)[C@H](CCCNC(=N)N)NC(=O)[C@@H](CCCNC(=N)N)NC(=O)[C@@H](CCCNC(=N)N)NC(=O)[C@@H](C(c2ccccc2)c2ccccc2)NC(=O)[C@@H](Cc2c[nH]c3ccccc23)NC(=O)[C@@H](C(c2ccccc2)c2ccccc2)NC1=O  MIC (ATCC 27853): 64 µg/mL
CCn1cc(C(=O)O)c(=O)c2cc(F)c(N3CCNCC3)cc21  MIC (microbial growth, broth dilution): 0.016 µg/mL
COC(=O)CNC(=O)c1ccc(NC(=O)c2[nH]c(C)c(Cl)c2Cl)c(N2CCN(C(=O)OC(C)(C)C)CC2)c1  MIC (microbial growth, broth dilution; ATCC27853): > 32 µg/mL
CN[C@H](CC(C)C)C(=O)N[C@H]1C(=O)N[C@@H](CC(N)=O)C(=O)N[C@H]2C(=O)N[C@H]3C(=O)N[C@H](C(=O)N[C@H](C(=O)O)c4cc(O)cc(O)c4-c4cc3ccc4O)[C@H](O)c3ccc(c(Cl)c3)Oc3cc2cc(c3O[C@@H]2O[C@H](CO)[C@@H](O)[C@H](O)[C@H]2O[C@H]2C[C@](C)(NCc3ccc(OCc4cn(CC(=O)N[C@H](C(=O)N[C@@H](CCN)C(=O)N[C@H]5CCNC(=O)[C@H]([C@@H](C)O)NC(=O)[C@H](CCN)NC(=O)[C@H](CCN)NC(=O)[C@H](CC(C)C)NC(=O)[C@@H](CC(C)C)NC(=O)[C@H](CCN)NC5=O)[C@@H](C)O)nn4)c(OC)c3)[C@H](O)[C@H](C)O2)Oc2ccc(cc2Cl)[C@H]1O  MIC (broth microdilution; ATCC 27853, cation-adjusted Mueller-Hinton broth; 18 to 20 h, 37 °C, 0.002% polysorbate 80): 16 µg/mL
COc1c(NC(=O)c2ccc(NC(=O)c3ccc(NC(=O)[C@H](CC#N)NC(=O)c4ccc(NC(=O)/C(C)=C/c5ccc(O)cc5)cc4)cc3)c(OC)c2O)ccc(C(=O)O)c1O  MIC (broth microdilution; ciprofloxacin-sensitive): 1 µg/mL
O=c1c(O)ccc(Br)cc1O  MIC (broth microdilution; ATCC 27853, CAMHB; 16 to 24 h, ≥80% growth inhibition): > 71.4 µM
CCCCCCCCCCCC[N+](C)(C)CCCCCCCCOc1cc(OCCCCCCCC[N+](C)(C)CCCCCCCCCCCC)cc(OCCCCCCCC[N+](C)(C)CCCCCCCCCCCC)c1.[Br-].[Br-].[Br-]  MIC (PAO1): 125 µM
CC1(C)[C@H](NC(=O)/C(=N\OC2(C(=O)O)CCCC2)c2csc(N)n2)C(=O)N1OS(=O)(=O)O  MIC (agar dilution; ATCC 27853): 4 µg/mL
Oc1c(Br)cc(Br)c2nc3c(C(F)(F)F)cc(C(F)(F)F)cc3nc12  MIC: ≥ 100 µM
CC1(C)[C@H](NC(=O)/C(=N\OCc2c(Cl)cccc2Cl)c2nsc(N)n2)C(=O)N1OS(=O)(=O)O  MIC (agar dilution; PAO1): > 64 µg/mL
COc1ccc2ccc(O)c(/C=N/[C@H]3CCCC[C@H]3/N=C/c3cccc(OC)c3O)c2c1  MIC (microbial growth, broth dilution): > 40 µM
CC1(C)[C@H](NC(=O)/C(=N\OCCN)c2nsc(N)n2)C(=O)N1OS(=O)(=O)O  MIC (agar dilution; PAO1): > 64 µg/mL
CC[C@H]1OC(=O)[C@H](C)[C@@H](OC(=O)Cc2ccc3c(c2)OCO3)[C@H](C)[C@@H](O[C@@H]2O[C@H](C)C[C@H](N(C)C)[C@H]2O)[C@](C)(OC)C[C@@H](C)C(=O)[C@H](C)[C@@H](O)[C@]1(C)O  MIC (PAO397, five efflux pumps deleted): 32 µg/mL
C/C(=C\c1ccc(O)cc1)C(=O)Nc1ccc(C(=O)N[C@@H](Cc2c[nH]nn2)C(=O)Nc2ccc(C(=O)Nc3ccc(C(=O)Nc4ccc(C(=O)O)c(O)c4)c(O)c3)cc2)cc1  MIC (broth microdilution; ciprofloxacin-resistant): 32 µg/mL
CCCCCCCC[N+](C)(C)CCCCCCOc1cc(OCCCCCC[N+](C)(C)CCCCCCCC)cc(OCCCCCC[N+](C)(C)CCCCCCCC)c1.[Br-].[Br-].[Br-]  MIC (PAO1): 2 µM
CC[C@H]1OC(=O)[C@H](C)[C@@H](OC(=O)Cc2ccc([N+](=O)[O-])cc2)[C@H](C)[C@@H](O[C@@H]2O[C@H](C)C[C@H](N(C)C)[C@H]2O)[C@](C)(OC)C[C@@H](C)C(=O)[C@H](C)[C@@H](O)[C@]1(C)O  MIC (microbial growth; ATCC27853): > 32 µg/mL
CO[C@@H]1[C@@H](OC(N)=O)[C@@H](O)[C@H](Oc2ccc3c(O)c(NC(=O)c4ccc(O)c(CC=C(C)C)c4)c(=O)oc3c2C)OC1(C)C  MIC (broth microdilution; pyocyanin non-producing): 1020 µg/mL
CC(C)(O/N=C(\C(=O)N[C@@H]1C(=O)N(OS(=O)(=O)O)C1(C)C)c1nsc(N)n1)C(=O)O  MIC (agar dilution; ATCC 27853): > 64 µg/mL
CC[C@H]1OC(=O)[C@H](C)[C@@H](OC(=O)Cc2c(F)cc([N+](=O)[O-])cc2F)[C@H](C)[C@@H](O[C@@H]2O[C@H](C)C[C@H](N(C)C)[C@H]2O)[C@](C)(OC)C[C@@H](C)C(=O)[C@H](C)[C@@H](O)[C@]1(C)O  MIC (DSM 50071; added: colistin sulfate at 0.1 x MIC): > 128 µM
COc1cc(C(=O)O)ccc1NC(=O)c1ccc(NC(=O)c2ccc(NC(=O)[C@H](Cc3c[nH]nn3)NC(=O)c3ccc(NC(=O)/C(C)=C/c4ccc(O)cc4)cc3)cc2)cc1O  MIC (broth microdilution; ciprofloxacin-sensitive): 32 µg/mL
CN[C@H](CC(C)C)C(=O)N[C@H]1C(=O)N[C@@H](CC(N)=O)C(=O)N[C@H]2C(=O)N[C@H]3C(=O)N[C@H](C(=O)N[C@H](C(=O)NCc4cn(CCCCC(=O)N[C@H](C(=O)N[C@@H](CCN)C(=O)N[C@H]5CCNC(=O)[C@H]([C@@H](C)O)NC(=O)[C@H](CCN)NC(=O)[C@H](CCN)NC(=O)[C@H](CC(C)C)NC(=O)[C@@H](CC(C)C)NC(=O)[C@H](CCN)NC5=O)[C@@H](C)O)nn4)c4cc(O)cc(O)c4-c4cc3ccc4O)[C@H](O)c3ccc(c(Cl)c3)Oc3cc2cc(c3O[C@@H]2O[C@H](CO)[C@@H](O)[C@H](O)[C@H]2O[C@H]2C[C@](C)(N)[C@H](O)[C@H](C)O2)Oc2ccc(cc2Cl)[C@H]1O  MIC (broth microdilution; ATCC 10145, cation-adjusted Mueller-Hinton broth; 18 to 20 h, 37 °C, 0.002% polysorbate 80): > 128 µg/mL
CCCCCCCC[N+](C)(C)CCCCCCCCOc1cc(OCCCCCCCC[N+](C)(C)CCCCCCCC)cc(OCCCCCCCC[N+](C)(C)CCCCCCCC)c1.[Br-].[Br-].[Br-]  MIC (PAO1): 4 µM
COc1cc(C(=O)Nc2ccc(C(=O)O)c(O)c2OC)ccc1NC(=O)c1ccc(NC(=O)[C@H](Cc2c[nH]nn2)NC(=O)c2ccc(NC(=O)/C(C)=C/c3ccc(O)cc3)cc2)cc1  MIC (broth microdilution; ciprofloxacin-sensitive): 16 µg/mL
CCCCCCCCCCn1cc[n+](CCCCCCOc2cc(OCCCCCC[n+]3ccn(CCCCCCCCCC)c3)cc(OCCCCCC[n+]3ccn(CCCCCCCCCC)c3)c2)c1.[Br-].[Br-].[Br-]  MIC (PAO1): 16 µM
CC1(C)[C@H](NC(=O)/C(=N\OCc2cc(=O)c(O)cn2O)c2csc(N)n2)C(=O)N1OS(=O)(=O)O  MIC (microbial growth, agar dilution; PAO1): 0.5 µg/mL
COc1ccc2ccc(O)c(/C=N/[C@H]3CCCC[C@H]3/N=C/c3ccc(C)cc3O)c2c1  MIC (microbial growth, broth dilution): > 40 µM
CC1(C)[C@H](NC(=O)/C(=N\OCC(=O)N2CCC(C(=O)O)CC2)c2csc(N)n2)C(=O)N1OS(=O)(=O)O  MIC (agar dilution; PAO1): > 64 µg/mL
CC[C@H]1OC(=O)[C@H](C)[C@@H](O[C@H]2C[C@@](C)(OC)[C@@H](O)[C@H](C)O2)[C@H](C)[C@@H](O[C@@H]2O[C@H](C)C[C@H](N(C)C)[C@H]2O)[C@](C)(O)C[C@@H](C)C(=O)[C@H](C)[C@@H](O)[C@]1(C)O  MIC (microbial growth, broth dilution; PAO1): 128 µg/mL
COc1c(C)c(OS(=O)(=O)c2ccccc2)c(C)c2c1C(=O)CC(c1ccccc1)O2 (stereo not drawn)  MIC (microbial growth, broth dilution; ATCC27853): 5000 µg/mL
COc1ccc2ccc(O)c(/C=N/[C@H]3CCCC[C@H]3/N=C/c3cc(C(C)(C)C)cc(C(C)(C)C)c3O)c2c1  MIC (microbial growth, broth dilution): > 40 µM
COc1c(NC(=O)c2ccc(NC(=O)c3ccc(NC(=O)[C@H](CC#N)NC(=O)c4ccc(NC(=O)/C(C)=C/c5ccc(O)cc5)cc4)cc3)c(OC)c2O)ccc(C(=O)O)c1O  MIC (microbial growth; PA14): 0.25 µg/mL
CCCCCCCC[C@@H]1NC(=O)[C@@H](Cc2ccccc2)NC(=O)[C@H](CCN)NC(=O)[C@@H](NC(=O)[C@H](CCN)NC(=O)[C@@H](NC(=O)[C@H](CCN)NC(=O)CCCCCCC)[C@@H](C)O)CCNC(=O)[C@H]([C@@H](C)O)NC(=O)[C@H](CCN)NC(=O)[C@H](CCN)NC1=O  MIC (ATCC 27853): 0.25 to 0.5 µg/mL
CC[C@H]1OC(=O)[C@H](C)[C@@H](OC(=O)Cc2ccc(N)cc2)[C@H](C)[C@@H](O[C@@H]2O[C@H](C)C[C@H](N(C)C)[C@H]2O)[C@](C)(OC)C[C@@H](C)C(=O)[C@H](C)[C@@H](O)[C@]1(C)O  MIC (PAO397, five efflux pumps deleted): 32 µg/mL
CCCCCC(=O)Oc1c(C)c(OC)c2c(/C=C/c3ccccc3)c(CCCC)c(=O)oc2c1C  MIC (microbial growth, broth dilution; ATCC27853): 5000 µg/mL
CC[C@H](C)[C@H](NC(=O)[C@H](CCC(N)=O)NC(=O)[C@H](Cc1ccccc1)NC(=O)[C@H](CC(N)=O)NC(=O)[C@H](CCCCN)NC(=O)[C@H](CC(C)C)NC(=O)[C@H](CCCNC(=N)N)NC(=O)[C@H](CCCCN)NC(=O)[C@H](CCCCN)NC(=O)[C@@H](NC(=O)[C@H](CO)NC(=O)[C@H](CCCCN)NC(=O)CNC(=O)[C@H](CC(C)C)NC(=O)[C@H](CCCCN)NC(=O)[C@H](CCCCN)NC(=O)[C@H](CC(C)C)NC(=O)[C@H](CCCCN)NC(=O)[C@H](CCCCN)NC(=O)[C@H](CCCNC(=N)N)NC(=O)[C@H](CC(C)C)NC(=O)CNC(=O)[C@@H](N)CCCNC(=N)N)[C@@H](C)CC)C(=O)NCC(=O)N[C@@H](Cc1ccccc1)C(=O)N[C@@H](CO)C(=O)N[C@H](C(=O)N1CCC[C@H]1C(=O)N[C@@H](Cc1ccccc1)C(=O)N[C@@H](C)C(=O)NCC(=O)O)C(C)C  MIC (broth microdilution; PA14, cation-adjusted Mueller-Hinton broth; 16 h, 37 °C): 32 µg/mL
